Measurements pooled from the literature.
Compare with care: the assays were run in different laboratories. ± gives the spread as reported.
Cell line: HL-60

Structure (SMILES)	test	setting	how to read	quantity	result
CO[C@@H](C[C@H]1C(C)=CC[C@@H]2[C@]3(C)C[C@H](O[C@@H]4O[C@@H](C)[C@H](OC(=O)c5cccc(O)c5)[C@@H](O)[C@H]4O)[C@@H](O)C(C)(C)[C@H]3CC[C@]21C)[C@H](N)C(=O)O	cell growth or viability, CCK-8	72 h		IC50	> 10 µM
CCN(C(=O)c1cc(F)ccc1Oc1nncnc1N1CCC2(C1)CN([C@H](CCCN(C)CCOC)C(C)C)C2)C(C)C	cell growth or viability	7 days		GI50	> 10 µM
COCCn1cc(COc2cccc(Cc3cnc(NC(=O)CSc4nc(C)cc(C)n4)s3)c2)nn1	cell viability, MTS	10 µM		inhibition	9.9 ± 2.8%
CC(C)=CC1OC(C)(C)C2C=C3C(=O)C(Cl)=CC(O)C3C3C(O)C4OC4C(=O)C132 (stereo not shown)	cell growth or viability, MTS			IC50	1.09 µM
COc1ccc(C(O)=CC(=O)c2ccc(C(C)(C)C)cc2)cc1.[Ru+2].c1ccc(-c2cccc(-c3ccccn3)n2)nc1.c1cnccn1	phototoxicity	light over 450 nm, 29.1 J/cm2		IC50	0.11 µM
O=C1CCC(N2C(=O)c3ccc(N4CCC(C(=O)N5CCC(CCN6CCC(CNC(=O)c7cccc(-c8noc(C(F)(F)F)n8)c7)(c7nc(-c8ccccc8)cs7)CC6)CC5)CC4)cc3C2=O)C(=O)N1 (stereo not shown)	cell growth or viability, CCK-8	7 days		IC50	1.51 µM
CC(C)c1ccc(N(C)c2ccc3c(c2)OCC[C@H]3CNc2cnccc2C(=O)O)cc1	cell proliferation	168 h		IC50	0.013 µM
COc1ccc(C([O-])=CC(=O)c2ccc(C(C)(C)C)cc2)cc1.[Ru+2].c1ccc(-c2ccccn2)nc1.c1ccc(-c2ccccn2)nc1			baseline: dark IC50 over light IC50	phototoxicity index	1.8
COc1cccc2c1cc1c3c(cc4c(c32)OCO4)[C@@H]2c3c4c5c(cc6c(c5c5cccc(OC)c35)OCO6)CCN4[C@@H]2N1C (racemic)	cytotoxicity, XTT	50 µg/mL, 48 h		inhibition	< 50%
COc1cc(-c2cn(C)c(=O)c3cnccc23)cc(OC)c1CN(C)C	cell growth or viability	7 days		EC50	2.48 µM
CO[C@@H](C[C@H]1C(C)=CC[C@@H]2[C@]3(C)C[C@H](O[C@@H]4O[C@@H](C)[C@H](OC(=O)c5cccc(O)c5)[C@@H](O[C@@H]5O[C@H](CO)[C@@H](O)[C@H](O)[C@H]5NC(C)=O)[C@H]4O)[C@@H](O)C(C)(C)[C@H]3CC[C@]21C)[C@H](N)C(=O)O	cell growth or viability, CCK-8	72 h		IC50	> 10 µM
COc1ccc(C(O)=CC(=O)c2ccc(C(C)(C)C)cc2)cc1.[Ru+2].c1ccc(-c2ccnc3c2ccc2c(-c4ccccc4)ccnc23)cc1.c1ccc(-c2ccnc3c2ccc2c(-c4ccccc4)ccnc23)cc1	cytotoxicity	dark		IC50	5.38 µM
Cc1cc(C)cc(NC(=O)N(Cc2ccc(C(=O)NO)cc2)OCc2ccccc2)c1	cell growth or viability, ATP luminescence	72 h		IC50	2.91 µM
